Results collected from several papers.
Every numbered part comes from another study and shows a few of its results, in no order.
UniProt Q9UBE8, sequence (whole entry, looked up): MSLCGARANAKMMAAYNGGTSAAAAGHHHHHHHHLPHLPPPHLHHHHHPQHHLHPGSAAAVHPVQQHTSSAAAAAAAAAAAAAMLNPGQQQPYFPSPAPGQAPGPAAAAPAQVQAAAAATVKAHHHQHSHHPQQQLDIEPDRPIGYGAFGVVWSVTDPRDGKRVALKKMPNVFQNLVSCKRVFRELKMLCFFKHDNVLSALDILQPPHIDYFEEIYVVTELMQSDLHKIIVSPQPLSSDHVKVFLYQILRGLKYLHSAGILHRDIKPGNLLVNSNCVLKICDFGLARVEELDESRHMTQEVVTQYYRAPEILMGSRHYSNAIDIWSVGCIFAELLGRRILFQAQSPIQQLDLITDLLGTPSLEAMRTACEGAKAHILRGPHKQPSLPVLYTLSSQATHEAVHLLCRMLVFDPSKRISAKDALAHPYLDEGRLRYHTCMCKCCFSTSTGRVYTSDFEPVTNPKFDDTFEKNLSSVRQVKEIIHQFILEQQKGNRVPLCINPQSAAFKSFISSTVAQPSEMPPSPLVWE
UniProt P16591, sequence (whole entry, looked up): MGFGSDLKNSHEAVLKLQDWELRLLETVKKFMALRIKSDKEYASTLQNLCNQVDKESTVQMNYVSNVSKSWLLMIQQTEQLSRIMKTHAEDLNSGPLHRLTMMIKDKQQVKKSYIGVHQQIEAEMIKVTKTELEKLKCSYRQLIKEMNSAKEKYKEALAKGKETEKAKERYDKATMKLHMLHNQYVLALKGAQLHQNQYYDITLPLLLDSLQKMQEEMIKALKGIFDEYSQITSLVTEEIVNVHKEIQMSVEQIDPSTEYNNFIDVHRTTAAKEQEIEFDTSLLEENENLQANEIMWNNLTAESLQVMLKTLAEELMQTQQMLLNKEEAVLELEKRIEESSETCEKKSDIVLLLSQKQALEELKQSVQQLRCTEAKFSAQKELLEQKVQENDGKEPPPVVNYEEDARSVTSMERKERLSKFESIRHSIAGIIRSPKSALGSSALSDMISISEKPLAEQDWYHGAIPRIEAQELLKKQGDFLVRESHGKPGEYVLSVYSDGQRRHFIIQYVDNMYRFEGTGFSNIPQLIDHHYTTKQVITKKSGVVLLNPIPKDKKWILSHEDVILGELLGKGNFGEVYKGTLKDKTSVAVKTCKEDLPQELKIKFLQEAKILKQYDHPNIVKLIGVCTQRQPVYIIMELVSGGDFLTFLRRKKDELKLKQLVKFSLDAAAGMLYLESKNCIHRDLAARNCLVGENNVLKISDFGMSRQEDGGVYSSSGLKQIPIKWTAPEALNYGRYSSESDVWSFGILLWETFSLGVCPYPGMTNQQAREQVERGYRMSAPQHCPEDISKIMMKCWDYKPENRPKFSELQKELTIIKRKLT
UniProt P53667, sequence (whole entry, looked up): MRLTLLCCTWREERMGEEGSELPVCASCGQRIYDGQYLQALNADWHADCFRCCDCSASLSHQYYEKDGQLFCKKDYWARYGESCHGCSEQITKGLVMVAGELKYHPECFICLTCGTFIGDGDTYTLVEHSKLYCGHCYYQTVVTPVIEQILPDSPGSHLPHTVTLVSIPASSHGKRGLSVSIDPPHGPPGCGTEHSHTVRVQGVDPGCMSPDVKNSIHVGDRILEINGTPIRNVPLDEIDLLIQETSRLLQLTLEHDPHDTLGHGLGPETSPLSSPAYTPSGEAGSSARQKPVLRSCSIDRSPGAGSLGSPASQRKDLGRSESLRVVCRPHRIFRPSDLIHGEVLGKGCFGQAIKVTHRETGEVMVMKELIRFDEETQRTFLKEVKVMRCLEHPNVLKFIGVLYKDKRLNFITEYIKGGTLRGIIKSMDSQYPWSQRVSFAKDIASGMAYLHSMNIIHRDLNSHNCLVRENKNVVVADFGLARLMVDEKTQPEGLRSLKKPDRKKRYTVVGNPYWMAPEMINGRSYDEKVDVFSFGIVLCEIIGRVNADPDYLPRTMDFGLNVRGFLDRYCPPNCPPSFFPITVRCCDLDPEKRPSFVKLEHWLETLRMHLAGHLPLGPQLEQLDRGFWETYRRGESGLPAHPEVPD
UniProt Q96RG2, sequence (whole entry, looked up): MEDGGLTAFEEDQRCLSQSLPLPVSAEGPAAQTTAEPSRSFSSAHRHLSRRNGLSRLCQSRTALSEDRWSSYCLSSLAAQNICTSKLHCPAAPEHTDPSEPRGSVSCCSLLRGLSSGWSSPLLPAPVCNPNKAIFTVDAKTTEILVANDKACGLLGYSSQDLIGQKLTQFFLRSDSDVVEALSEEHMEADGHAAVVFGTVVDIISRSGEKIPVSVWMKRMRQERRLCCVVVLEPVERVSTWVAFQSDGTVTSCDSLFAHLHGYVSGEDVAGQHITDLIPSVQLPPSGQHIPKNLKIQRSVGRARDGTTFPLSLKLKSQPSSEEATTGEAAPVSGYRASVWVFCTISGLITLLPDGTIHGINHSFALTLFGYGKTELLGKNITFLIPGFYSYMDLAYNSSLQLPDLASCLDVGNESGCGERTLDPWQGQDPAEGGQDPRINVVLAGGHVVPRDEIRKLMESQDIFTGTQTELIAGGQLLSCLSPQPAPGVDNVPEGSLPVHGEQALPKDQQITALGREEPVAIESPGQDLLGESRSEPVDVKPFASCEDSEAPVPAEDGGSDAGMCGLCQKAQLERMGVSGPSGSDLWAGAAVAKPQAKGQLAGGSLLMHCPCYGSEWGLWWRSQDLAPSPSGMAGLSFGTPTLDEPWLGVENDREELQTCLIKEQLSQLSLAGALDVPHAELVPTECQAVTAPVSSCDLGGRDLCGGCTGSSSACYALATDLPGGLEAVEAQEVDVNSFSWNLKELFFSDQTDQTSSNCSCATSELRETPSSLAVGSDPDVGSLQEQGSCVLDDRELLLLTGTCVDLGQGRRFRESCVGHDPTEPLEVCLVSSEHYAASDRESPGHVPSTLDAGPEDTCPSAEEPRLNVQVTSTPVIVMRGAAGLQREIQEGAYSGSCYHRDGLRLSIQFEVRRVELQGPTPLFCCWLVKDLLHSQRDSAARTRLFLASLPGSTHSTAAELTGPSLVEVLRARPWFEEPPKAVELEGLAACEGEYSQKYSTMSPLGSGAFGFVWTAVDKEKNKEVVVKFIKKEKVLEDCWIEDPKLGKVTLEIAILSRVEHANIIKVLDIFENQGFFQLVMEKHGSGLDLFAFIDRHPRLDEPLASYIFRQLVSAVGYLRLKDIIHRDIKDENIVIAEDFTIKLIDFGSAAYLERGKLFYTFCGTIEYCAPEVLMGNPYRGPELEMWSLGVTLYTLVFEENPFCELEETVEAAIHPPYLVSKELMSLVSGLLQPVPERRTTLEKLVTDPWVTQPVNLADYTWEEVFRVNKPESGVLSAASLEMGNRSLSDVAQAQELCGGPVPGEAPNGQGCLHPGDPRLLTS
UniProt P21127, sequence (whole entry, looked up): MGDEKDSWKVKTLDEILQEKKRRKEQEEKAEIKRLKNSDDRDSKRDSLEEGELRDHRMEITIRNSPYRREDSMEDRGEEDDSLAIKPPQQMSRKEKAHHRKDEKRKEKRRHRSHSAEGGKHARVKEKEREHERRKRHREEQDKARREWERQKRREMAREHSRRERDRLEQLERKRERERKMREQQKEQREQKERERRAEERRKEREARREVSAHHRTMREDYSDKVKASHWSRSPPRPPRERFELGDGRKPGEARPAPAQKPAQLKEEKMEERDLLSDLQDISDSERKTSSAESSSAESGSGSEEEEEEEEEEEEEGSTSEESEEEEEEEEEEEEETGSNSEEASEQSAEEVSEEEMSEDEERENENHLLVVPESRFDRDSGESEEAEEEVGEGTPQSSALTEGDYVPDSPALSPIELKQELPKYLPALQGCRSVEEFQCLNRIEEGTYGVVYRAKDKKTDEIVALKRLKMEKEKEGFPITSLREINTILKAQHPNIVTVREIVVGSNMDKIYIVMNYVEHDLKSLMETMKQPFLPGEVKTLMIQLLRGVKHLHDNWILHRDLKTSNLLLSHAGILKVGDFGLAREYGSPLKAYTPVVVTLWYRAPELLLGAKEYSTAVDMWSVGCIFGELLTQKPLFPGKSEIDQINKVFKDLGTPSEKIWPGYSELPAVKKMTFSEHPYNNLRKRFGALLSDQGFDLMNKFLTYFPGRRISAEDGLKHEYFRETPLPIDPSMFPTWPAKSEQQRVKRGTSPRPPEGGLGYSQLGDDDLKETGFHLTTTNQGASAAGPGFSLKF
UniProt Q9H2K8, sequence (whole entry, looked up): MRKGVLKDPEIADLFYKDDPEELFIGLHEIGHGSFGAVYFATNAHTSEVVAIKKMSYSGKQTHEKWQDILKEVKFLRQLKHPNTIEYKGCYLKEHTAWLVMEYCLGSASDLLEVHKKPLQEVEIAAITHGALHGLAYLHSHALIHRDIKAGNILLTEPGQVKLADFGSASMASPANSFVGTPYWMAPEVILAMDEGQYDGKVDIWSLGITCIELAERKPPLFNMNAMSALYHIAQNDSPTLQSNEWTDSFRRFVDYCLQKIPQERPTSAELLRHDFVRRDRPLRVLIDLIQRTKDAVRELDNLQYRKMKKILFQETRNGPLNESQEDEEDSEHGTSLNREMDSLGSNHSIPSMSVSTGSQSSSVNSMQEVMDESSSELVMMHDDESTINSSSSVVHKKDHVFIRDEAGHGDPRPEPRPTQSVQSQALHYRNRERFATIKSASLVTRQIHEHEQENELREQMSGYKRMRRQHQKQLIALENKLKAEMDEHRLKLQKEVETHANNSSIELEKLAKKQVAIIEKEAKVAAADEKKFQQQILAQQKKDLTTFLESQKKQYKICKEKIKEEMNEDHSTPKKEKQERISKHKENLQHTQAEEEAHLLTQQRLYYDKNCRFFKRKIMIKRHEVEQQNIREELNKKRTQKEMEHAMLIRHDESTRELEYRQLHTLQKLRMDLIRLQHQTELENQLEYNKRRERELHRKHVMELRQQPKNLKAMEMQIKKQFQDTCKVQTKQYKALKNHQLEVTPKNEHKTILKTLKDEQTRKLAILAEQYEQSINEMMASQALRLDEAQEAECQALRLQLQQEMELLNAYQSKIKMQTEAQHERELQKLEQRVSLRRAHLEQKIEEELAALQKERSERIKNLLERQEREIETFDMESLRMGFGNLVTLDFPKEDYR

Sample 1 — tested at: 50 µM
Target: Bromodomain-containing protein 4, BD1 (BRD4, Homo sapiens, UniProt O60885)
SMILES	inhibition [%]
O=c1sn(-c2cccc3ccccc23)c(=O)n1Cc1ccccc1	82.3
Cc1cc(Nc2cc(N3CCN(C)CC3)nc(Sc3ccc(NC(=O)C4CC4)cc3)n2)[nH]n1	35.9
Cn1c(=O)c(F)c(Nc2ccc(I)cc2F)c2c(=O)n(C[C@@H](O)CO)cnc21	12.7
CCN(CCO)CCCOc1ccc2c(Nc3cc(CC(=O)Nc4cccc(F)c4)[nH]n3)ncnc2c1	27.9
NC(=O)c1ccc(-c2nc(-c3ccc4c(c3)OCO4)c(-c3ccccn3)[nH]2)cc1	44.6
CC(C)n1nc(-c2ccc3oc(N)nc3c2)c2c(N)ncnc21	-0.8
Cn1cc(C2=C(c3ccc(Cl)cc3Cl)C(=O)NC2=O)c2ccccc21	31.2
CCN1CCN(c2ccc(Nc3cc(N(C)C(=O)Nc4c(Cl)c(OC)cc(OC)c4Cl)ncn3)cc2)CC1	10.1
CN1CCN(CCOc2cc(OC3CCOCC3)c3c(Nc4c(Cl)ccc5c4OCO5)ncnc3c2)CC1	16.1
Cc1cnc(NC(=O)Nc2cc(Br)c(C)cc2OC[C@@H]2CNCCO2)cn1	35.1
COc1ccc(-c2ccc3c(N4CCOC[C@@H]4C)nc(N4CCOC[C@@H]4C)nc3n2)cc1CO	-48
COc1cc2nccc(Oc3ccc(NC(=O)NC4CC4)c(Cl)c3)c2cc1C(N)=O	1.1
Cc1nc(Nc2ncc(C(=O)Nc3c(C)cccc3Cl)s2)cc(N2CCN(CCO)CC2)n1	16.6

Sample 2 — organism: Plasmodium berghei; cells: Huh-7; strain: liver stage; tested at: 10 µM; time: 24 h; relative to: control
Structure (SMILES)	parasite load [%]
O=C(CCBr)N1CCN(C(=O)CCBr)CC1	106
CN1[C@@H]2CC[C@H]1C[C@@H](OC(=O)[C@H](CO)c1ccccc1)C2	104
Fc1ccc(C(c2ccc(F)cc2)N2CCN(C/C=C/c3ccccc3)CC2)cc1	45.6
C[C@H]1O[C@@H](O[C@H]2[C@@H](O)C[C@H](O[C@H]3[C@@H](O)C[C@H](O[C@H]4CC[C@@]5(C)[C@H](CC[C@@H]6[C@@H]5C[C@@H](O)[C@]5(C)[C@@H](C7=CC(=O)OC7)CC[C@]65O)C4)O[C@@H]3C)O[C@@H]2C)C[C@H](O)[C@@H]1O	22.7
Clc1ccc2c(c1)C(N1CCNCC1)=Nc1ccccc1O2	77.1
Nc1nc2ccc(OC(F)(F)F)cc2s1	107
CC(C)c1c(C(=O)Nc2ccccc2)c(-c2ccccc2)c(-c2ccc(F)cc2)n1CC[C@@H](O)C[C@@H](O)CC(=O)O	89
CC1=C(C(=O)O)N2C(=O)[C@@H](NC(=O)[C@H](N)c3ccccc3)[C@H]2SC1	108
CC[N+](C)(C)Cc1ccccc1Br	105
CC[C@H]1CN2CCc3cc(OC)c(OC)cc3[C@@H]2C[C@@H]1C[C@H]1NCCc2cc(OC)c(OC)cc21	3.34
Clc1ccc(COC(Cn2ccnc2)c2ccc(Cl)cc2Cl)c(Cl)c1 (stereo not drawn)	54.6
CN1CCN(CCCN2c3ccccc3Sc3ccc(Cl)cc32)CC1	45.4
CN(C)CCCN1c2ccccc2CCc2ccc(Cl)cc21	31.4
CN1CCN(C2=Nc3cc(Cl)ccc3Nc3ccccc32)CC1	63.6
COc1ccc(Cc2nccc3cc(OC)c(OC)cc23)cc1OC	33
CN(C)C(=N)NC(=N)N	81.5

Sample 3 — effect on: cell-free assay; method: competition with immobilised ligand; tested at: 0.1 µM
SMILES: CNC(=O)c1ccc(Nc2ncc(C(F)(F)F)c(NCc3nccnc3N(C)S(C)(=O)=O)n2)cc1
target	remaining binding
LATS1 (Homo sapiens, UniProt O95835)	96%
Tyrosine-protein kinase ABL1, non-phosphorylated (ABL1, Homo sapiens, UniProt P00519, H396P)	68%
EGFR (Homo sapiens, UniProt P00533, del747-750/T751S)	93%
PRPF4B (Homo sapiens, UniProt Q13523)	69%
RIPK4 (Homo sapiens, UniProt P57078)	89%
CHUK (Homo sapiens, UniProt O15111)	98%
SIK3 (Homo sapiens, UniProt Q9Y2K2)	82%
WNK2 (Homo sapiens, UniProt Q9Y3S1)	94%
CLK4 (Homo sapiens, UniProt Q9HAZ1)	25%
Ribosomal protein S6 kinase alpha-4, N-terminal kinase domain (RPS6KA4, Homo sapiens, UniProt O75676)	85%
PLK3 (Homo sapiens, UniProt Q9H4B4)	91%
TLK1 (Homo sapiens, UniProt Q9UKI8)	73%
TRPM6 (Homo sapiens, UniProt Q9BX84)	98%
CHEK2 (Homo sapiens, UniProt O96017)	100%
Ribosomal protein S6 kinase alpha-3, N-terminal kinase domain (RPS6KA3, Homo sapiens, UniProt P51812)	82%
CDK11B (Homo sapiens, UniProt P21127)	95%
NTRK3 (Homo sapiens, UniProt Q16288)	41%
TGFBR1 (Homo sapiens, UniProt P36897)	87%
PIK3CA (Homo sapiens, UniProt P42336, H1047Y)	100%
CSNK1G2 (Homo sapiens, UniProt P78368)	99%
MARK4 (Homo sapiens, UniProt Q96L34)	83%
Ribosomal protein S6 kinase alpha-6, N-terminal kinase domain (RPS6KA6, Homo sapiens, UniProt Q9UK32)	70%
DYRK1A (Homo sapiens, UniProt Q13627)	71%
PIM3 (Homo sapiens, UniProt Q86V86)	82%
LRRK2 (Homo sapiens, UniProt Q5S007, G2019S)	65%

Sample 4 — SMILES: Cc1ccc(S(=O)(=O)/C=C/C#N)cc1; effect on: enzyme activity; mode: inhibitor; tested at: 0.5 µM; relative to: control
target	remaining activity [%]
FYN (Homo sapiens, UniProt P06241)	95.4
HIPK1 (Homo sapiens, UniProt Q86Z02)	105
LIM domain kinase 1 (LIMK1, Homo sapiens, UniProt P53667)	97.1
PASK (Homo sapiens, UniProt Q96RG2)	99.3
PRKX (Homo sapiens, UniProt P51817)	102
ALK (Homo sapiens, UniProt Q9UM73)	103
FER (Homo sapiens, UniProt P16591)	104
MATK (Homo sapiens, UniProt P42679)	101
Cyclin-dependent kinase 3, with cyclin E (CDK3, Homo sapiens, UniProt Q00526)	99.7
SRC (Homo sapiens, UniProt P12931)	102
AKT1 (Homo sapiens, UniProt P31749)	112
STK25 (Homo sapiens, UniProt O00506)	89.6
PKN1 (Homo sapiens, UniProt Q16512)	92.1
CDC42BPA (Homo sapiens, UniProt Q5VT25)	96.4
FGR (Homo sapiens, UniProt P09769)	100
NEK11 (Homo sapiens, UniProt Q8NG66)	95.8
NLK (Homo sapiens, UniProt Q9UBE8)	99.2
FLT4 (Homo sapiens, UniProt P35916)	96.5
TAOK3 (Homo sapiens, UniProt Q9H2K8)	101
Insulin receptor (INSR, Homo sapiens, UniProt P06213)	108
MARK3 (Homo sapiens, UniProt P27448)	100

Repeated from above (sample 3):
target	remaining binding
Tyrosine-protein kinase ABL1, non-phosphorylated (ABL1, Homo sapiens, UniProt P00519, H396P)	68%
EGFR (Homo sapiens, UniProt P00533, del747-750/T751S)	93%
PRPF4B (Homo sapiens, UniProt Q13523)	69%
RIPK4 (Homo sapiens, UniProt P57078)	89%
CHUK (Homo sapiens, UniProt O15111)	98%
SIK3 (Homo sapiens, UniProt Q9Y2K2)	82%
WNK2 (Homo sapiens, UniProt Q9Y3S1)	94%
CLK4 (Homo sapiens, UniProt Q9HAZ1)	25%
Ribosomal protein S6 kinase alpha-4, N-terminal kinase domain (RPS6KA4, Homo sapiens, UniProt O75676)	85%
PLK3 (Homo sapiens, UniProt Q9H4B4)	91%
